Assay results pooled from the literature.
Protocols differ between the studies behind these lines. “And” joins repeats or separate records; there may be more than shown. Numbers after ± are the reported error.
GBA1 R534H: Lysosomal acid glucosylceramidase (GBA1, Homo sapiens, UniProt P04062, R534H)
Chain of UniProt P04062 (whole entry, unmodified, looked up): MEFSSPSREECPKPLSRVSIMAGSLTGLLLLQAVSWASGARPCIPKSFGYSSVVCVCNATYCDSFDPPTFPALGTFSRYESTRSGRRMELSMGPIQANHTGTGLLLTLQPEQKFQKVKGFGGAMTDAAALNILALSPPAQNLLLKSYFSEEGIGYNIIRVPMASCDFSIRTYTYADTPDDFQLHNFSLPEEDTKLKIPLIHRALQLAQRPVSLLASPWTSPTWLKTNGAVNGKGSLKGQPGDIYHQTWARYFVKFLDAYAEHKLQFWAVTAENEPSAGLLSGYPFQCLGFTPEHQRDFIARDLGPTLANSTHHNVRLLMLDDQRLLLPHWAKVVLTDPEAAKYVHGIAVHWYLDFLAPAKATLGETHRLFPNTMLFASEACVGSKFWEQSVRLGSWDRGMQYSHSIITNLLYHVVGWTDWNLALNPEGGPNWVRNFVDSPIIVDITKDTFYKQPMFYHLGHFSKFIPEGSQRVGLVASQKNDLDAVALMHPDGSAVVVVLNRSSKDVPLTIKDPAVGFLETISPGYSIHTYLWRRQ
bglA: bglA (Thermotoga maritima, UniProt Q08638)
Chain of UniProt Q08638 (whole entry, looked up): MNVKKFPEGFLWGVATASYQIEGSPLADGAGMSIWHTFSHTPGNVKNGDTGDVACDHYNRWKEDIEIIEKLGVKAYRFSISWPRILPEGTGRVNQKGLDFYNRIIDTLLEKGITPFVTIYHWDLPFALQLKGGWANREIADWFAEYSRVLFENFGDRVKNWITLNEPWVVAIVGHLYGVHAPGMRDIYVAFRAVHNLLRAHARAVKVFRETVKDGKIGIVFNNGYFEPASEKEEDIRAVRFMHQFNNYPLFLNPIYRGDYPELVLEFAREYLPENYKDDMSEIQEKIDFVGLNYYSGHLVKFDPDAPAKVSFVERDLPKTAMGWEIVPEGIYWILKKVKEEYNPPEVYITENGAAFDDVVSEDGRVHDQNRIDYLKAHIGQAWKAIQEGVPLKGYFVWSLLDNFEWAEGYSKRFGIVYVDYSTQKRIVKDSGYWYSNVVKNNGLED
Peptidyl-prolyl cis-trans isomerase FKBP1B: Peptidyl-prolyl cis-trans isomerase FKBP1B (Homo sapiens, UniProt P68106)
Chain of UniProt P68106 (whole entry, looked up): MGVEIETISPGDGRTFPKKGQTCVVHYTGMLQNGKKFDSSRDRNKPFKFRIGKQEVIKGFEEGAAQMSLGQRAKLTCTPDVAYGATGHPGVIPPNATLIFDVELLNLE
BRD9: Bromodomain-containing protein 9 (BRD9, Homo sapiens, UniProt Q9H8M2)
Chain of UniProt Q9H8M2 (whole entry, looked up): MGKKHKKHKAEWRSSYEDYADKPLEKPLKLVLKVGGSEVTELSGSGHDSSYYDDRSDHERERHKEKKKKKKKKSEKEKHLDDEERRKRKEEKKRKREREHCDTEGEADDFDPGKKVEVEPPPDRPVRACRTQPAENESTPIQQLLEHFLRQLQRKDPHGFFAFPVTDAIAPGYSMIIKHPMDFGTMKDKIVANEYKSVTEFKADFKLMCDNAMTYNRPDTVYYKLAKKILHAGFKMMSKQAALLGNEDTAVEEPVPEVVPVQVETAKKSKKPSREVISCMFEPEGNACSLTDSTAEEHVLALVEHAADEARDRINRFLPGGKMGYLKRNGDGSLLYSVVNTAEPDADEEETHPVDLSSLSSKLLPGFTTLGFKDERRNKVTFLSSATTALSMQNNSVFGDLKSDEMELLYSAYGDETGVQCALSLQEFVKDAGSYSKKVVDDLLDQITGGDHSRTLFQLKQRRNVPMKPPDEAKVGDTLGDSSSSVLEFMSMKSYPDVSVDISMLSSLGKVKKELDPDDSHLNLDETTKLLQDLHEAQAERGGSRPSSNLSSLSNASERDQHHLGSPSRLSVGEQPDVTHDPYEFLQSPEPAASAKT
clpP: ATP-dependent Clp protease proteolytic subunit (clpP, Escherichia coli, UniProt P0A6G7)
Chain of UniProt P0A6G7 (whole entry, looked up): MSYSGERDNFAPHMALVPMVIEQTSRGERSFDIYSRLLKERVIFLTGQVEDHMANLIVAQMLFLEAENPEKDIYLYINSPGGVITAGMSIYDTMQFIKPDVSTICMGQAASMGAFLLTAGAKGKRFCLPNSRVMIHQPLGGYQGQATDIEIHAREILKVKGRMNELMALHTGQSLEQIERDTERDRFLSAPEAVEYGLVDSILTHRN
GAP50: Glideosome-associated protein 50 (GAP50, Plasmodium falciparum, UniProt Q8I2X3)
Chain of UniProt Q9SZU7 (whole entry, unmodified, looked up): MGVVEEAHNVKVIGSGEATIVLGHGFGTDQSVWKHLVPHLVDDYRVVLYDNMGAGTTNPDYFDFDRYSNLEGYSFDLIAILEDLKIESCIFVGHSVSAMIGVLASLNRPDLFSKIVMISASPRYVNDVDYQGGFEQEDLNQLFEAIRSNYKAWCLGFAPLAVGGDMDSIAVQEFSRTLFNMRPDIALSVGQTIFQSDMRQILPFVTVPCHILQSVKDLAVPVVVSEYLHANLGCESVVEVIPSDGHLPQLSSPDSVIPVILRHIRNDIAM
Chain of UniProt Q8I2X3 (whole entry, looked up): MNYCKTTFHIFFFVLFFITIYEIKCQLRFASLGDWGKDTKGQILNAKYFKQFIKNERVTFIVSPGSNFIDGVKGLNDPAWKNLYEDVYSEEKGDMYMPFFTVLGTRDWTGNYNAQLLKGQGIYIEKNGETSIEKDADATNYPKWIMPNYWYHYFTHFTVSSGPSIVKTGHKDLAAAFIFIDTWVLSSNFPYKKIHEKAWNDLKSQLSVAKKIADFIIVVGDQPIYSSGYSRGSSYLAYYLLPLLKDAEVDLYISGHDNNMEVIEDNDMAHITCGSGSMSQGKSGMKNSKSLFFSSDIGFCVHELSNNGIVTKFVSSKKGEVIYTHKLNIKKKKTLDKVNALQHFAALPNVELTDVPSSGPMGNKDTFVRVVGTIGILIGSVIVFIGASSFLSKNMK
Chain of UniProt Q9UBN7 (whole entry, looked up): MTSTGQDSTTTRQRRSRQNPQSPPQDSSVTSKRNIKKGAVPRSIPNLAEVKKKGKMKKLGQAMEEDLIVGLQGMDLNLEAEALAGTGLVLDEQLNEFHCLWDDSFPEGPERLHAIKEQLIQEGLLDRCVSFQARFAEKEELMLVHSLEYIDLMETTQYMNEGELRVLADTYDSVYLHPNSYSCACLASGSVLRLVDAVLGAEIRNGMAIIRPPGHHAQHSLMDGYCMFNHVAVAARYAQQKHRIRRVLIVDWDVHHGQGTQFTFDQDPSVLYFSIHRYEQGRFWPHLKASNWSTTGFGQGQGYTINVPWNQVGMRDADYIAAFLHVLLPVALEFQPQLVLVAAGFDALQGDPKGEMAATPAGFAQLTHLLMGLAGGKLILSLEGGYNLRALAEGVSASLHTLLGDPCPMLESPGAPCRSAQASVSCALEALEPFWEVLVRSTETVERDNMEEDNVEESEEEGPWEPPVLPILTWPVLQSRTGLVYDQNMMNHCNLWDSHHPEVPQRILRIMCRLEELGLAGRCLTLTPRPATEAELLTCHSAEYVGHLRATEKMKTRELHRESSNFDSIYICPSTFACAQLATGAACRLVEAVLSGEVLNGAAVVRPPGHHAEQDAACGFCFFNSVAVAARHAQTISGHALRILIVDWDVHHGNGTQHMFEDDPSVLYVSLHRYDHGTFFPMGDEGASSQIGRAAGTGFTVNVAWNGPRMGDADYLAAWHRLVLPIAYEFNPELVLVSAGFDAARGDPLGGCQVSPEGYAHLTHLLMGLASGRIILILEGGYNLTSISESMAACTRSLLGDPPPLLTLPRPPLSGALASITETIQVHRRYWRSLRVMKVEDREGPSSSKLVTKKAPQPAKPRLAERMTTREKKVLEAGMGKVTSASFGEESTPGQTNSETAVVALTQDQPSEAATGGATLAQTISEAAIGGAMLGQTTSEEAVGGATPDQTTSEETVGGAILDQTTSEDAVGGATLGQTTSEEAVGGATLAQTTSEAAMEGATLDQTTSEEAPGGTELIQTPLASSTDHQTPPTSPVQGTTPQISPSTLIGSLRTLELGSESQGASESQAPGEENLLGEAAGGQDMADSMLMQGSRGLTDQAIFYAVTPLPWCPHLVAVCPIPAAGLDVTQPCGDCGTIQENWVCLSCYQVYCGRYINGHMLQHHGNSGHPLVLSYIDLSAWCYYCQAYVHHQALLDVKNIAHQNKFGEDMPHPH
Chain of UniProt Q8WUJ1 (whole entry, looked up): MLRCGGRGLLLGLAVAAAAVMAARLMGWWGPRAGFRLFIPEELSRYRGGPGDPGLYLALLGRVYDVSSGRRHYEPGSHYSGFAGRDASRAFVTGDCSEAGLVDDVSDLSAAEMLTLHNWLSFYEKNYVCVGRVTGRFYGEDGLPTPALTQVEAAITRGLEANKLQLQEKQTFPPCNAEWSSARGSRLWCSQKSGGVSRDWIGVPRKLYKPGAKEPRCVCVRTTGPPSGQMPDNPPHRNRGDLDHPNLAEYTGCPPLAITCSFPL

| SMILES | target | assay | system | setting | measurement | value |
| --- | --- | --- | --- | --- | --- | --- |
| OC[C@@H]1[C@@H](O)[C@H](O)[C@@H](O)CN1CC(F)(F)CCCOCc1ccc(-c2ccccc2)cc1 | GBA1 R534H | inhibitor, 4MU-β-D-glucopyranoside |  | added: 4MU-β-D-glucopyranoside | IC50 | 0.13 µM |
| CC1=C[C@H](O)CC(C)(C)[C@H]1/C=C/C(C)=C/C=C/C(C)=C/C=C/C=C(C)/C=C/C=C(C)/C=C/C1=C(C)C[C@@H](O)CC1(C)C | Beta-lactoglobulin (LGB, Bos taurus, UniProt P02754) | binding, ITC |  |  | Kd | 89.5 µM |
| OC[C@@H]1[C@@H](O)[C@H](O)[C@@H](O)c2nccn21 | bglA | binding, ITC |  | pH 6.8 | Kd | 0.14 µM |
| C=C[C@H]1CN(Cc2ccccn2)C(=O)[C@@H]2CCC[C@H]1N2Sc1cc(Cl)cc(Cl)c1 | Peptidyl-prolyl cis-trans isomerase FKBP1B | ligand displacement, FP |  |  | Kd | 1.36 µM |
| Cc1c[nH]c2nccc(-c3ccc(C(=O)N[C@@H]4c5c(F)cc(C(F)F)cc5C[C@@H]4O)cn3)c12 | ROCK1 (Homo sapiens, UniProt Q13464) | binding, competition with immobilised ligand |  |  | Kd | 0.0054 µM |
| CC(=O)NCCN(c1nc(NCc2n[nH]c3c2CCCC3)nc(N2CC3C(CCOc4cc(-c5scnc5C)ccc4CNC(=O)[C@@H]4C[C@@H](O)CN4C(=O)[C@@H](NC(=O)C4(F)CC4)C(C)(C)C)C3C2)n1)C(C)C (stereo partly drawn) | BRD9 | binding, SPR |  |  | Kd | > 20 µM |
| Cc1cc(=O)[nH]c(-n2nc(-c3cccs3)cc2NC(=O)C2(c3ccc(Cl)cc3)CCCC2)n1 | Cystic fibrosis transmembrane conductance regulator, NBD1 (CFTR, Homo sapiens, UniProt P13569, F494N) | surface plasmon resonance |  | immobilized NBD1 | Kd | 40 µM |
| Cc1cccc2c1N(C(=O)n1ccnn1)CC2 | KAI2 (Arabidopsis thaliana, UniProt Q9SZU7, D217E) | ITC |  | D217E mutant | Kd | 1120 µM and 1250 µM and 1140 µM |
| O=C(NO)c1cnc(NC2(c3cccc(F)c3)CCCCC2)nc1 | HDAC6 (Homo sapiens, UniProt Q9UBN7) | inhibitor, competition pulldown | SW620 and MV4-11 lysate | 1 h | Kd | 0.394 µM |
| CCCC/C=C/C(=O)N[C@@H](Cc1cc(F)cc(F)c1)C(=O)N[C@H]1COC(=O)[C@@H]2CCCN2C(=O)[C@H](C)NC(=O)[C@@H]2CCCCN2C(=O)[C@@H]2CCCN2C1=O | clpP | peptidase activity, activator |  | 30 °C, added: fluorogenic decapeptide 15 µM | Kd | 2.9 ± 0.077 µM |
| Cn1ncc2cc(-c3cncc(Cl)c3N3CCC4(CCNC4=O)CC3)ccc21 | Neuferricin (CYB5D2, Homo sapiens, UniProt Q8WUJ1) | SILAC displacement | LS174T-L5 cell lysate |  | Kd | > 12.6 µM |
| Cc1ncc(CNc2nc(N3CC(CCOc4cc(-c5scnc5C)ccc4CNC(=O)[C@@H]4C[C@@H](O)CN4C(=O)[C@@H](NC(=O)C4(F)CC4)C(C)(C)C)C3)nc(N3CCC[C@H]3Cn3ccnn3)n2)c(N)n1 | BRD9 | binding, SPR |  |  | Kd | 4.4 µM |
| O=C1C2CCCC(C(C(O)CO)CN1Cc1ccccn1)N2S(=O)(=Nc1ccccc1)c1cc(Cl)cc(Cl)c1 (stereo not drawn) | Peptidyl-prolyl cis-trans isomerase FKBP1B | ligand displacement, FP |  |  | Kd | 23.6 µM |
| CCOC(=O)c1ccc2c(c1)C1CC(C)(N2)c2c(C)nc3ccc(C(=O)OCC)cc3c21 (single isomer, unassigned) | GAP50 | binding, surface plasmon resonance |  | 1:1 binding model | Kd | 202 µM |
| CC(=O)NCC1CCCCN1c1nc(N(C)CCc2ncc(C)s2)nc(N2CC3C(CCOc4cc(-c5scnc5C)ccc4CNC(=O)[C@@H]4C[C@@H](O)CN4C(=O)[C@@H](NC(=O)C4(F)CC4)C(C)(C)C)C3C2)n1 (stereo partly drawn) | BRD9 | binding, SPR |  |  | Kd | > 20 µM |
| CCCC/C=C/C(=O)N[C@@H](Cc1cc(F)cc(F)c1)C(=O)N[C@@H]1C(=O)N2CCC[C@H]2C(=O)N2CC[C@H](C)C[C@H]2C(=O)N[C@@H](C)C(=O)N2CCC[C@H]2C(=O)O[C@H]1C | clpP | peptidase activity, activator |  | 30 °C, added: fluorogenic decapeptide 15 µM | Kd | 1.1 ± 0.06 µM |
| Cc1cc(C(c2ccc(Cl)cc2)c2ccc(Cl)cc2)c2nccc(C)c2c1 | GAP50 | binding, surface plasmon resonance |  | 1:1 binding model | Kd | 1.91 µM |
| OC[C@H]1c2[nH]cnc2[C@H](O)[C@@H](O)[C@@H]1O | bglA | binding, ITC |  | pH 5.8 | Kd | 36.6 µM |
| C=CC1CN(Cc2ccccn2)C(=O)C2CCCC1N2S(=O)(=NC1C=CCCC1)c1cc(Cl)cc(Cl)c1 (mixture of isomers) | Peptidyl-prolyl cis-trans isomerase FKBP1B | ligand displacement, FP |  |  | Kd | 3.99 µM |
| CCCCCc1ccc(Cc2cc(/C=C/C(=O)OC)cc3cccnc23)cc1 | GAP50 | binding, surface plasmon resonance |  | 1:1 binding model | Kd | 9.51 µM |
| O=c1c(Oc2ccccc2)c(C(F)(F)F)oc2c(O)c(O)ccc12 | Cullin-1 (Homo sapiens, UniProt Q13616) | binding, MST |  |  | Kd | 4.46 µM |
| CC(=O)NCC1CCCCN1c1nc(N2CCN(c3nnc[nH]3)CC2)nc(N2CC3C(CCOc4cc(-c5scnc5C)ccc4CNC(=O)[C@@H]4C[C@@H](O)CN4C(=O)[C@@H](NC(=O)C4(F)CC4)C(C)(C)C)C3C2)n1 (stereo partly drawn) | BRD9 | binding, SPR |  |  | Kd | > 20 µM |
| CCCCCOCCCCCN1C[C@H](O)[C@@H](O)[C@H](O)[C@@H]1CO | GBA1 R534H | inhibitor, 4MU-β-D-glucopyranoside |  | added: 4MU-β-D-glucopyranoside | IC50 | 100 µM |
| CCc1nc2cc3ccccc3cc2cc1C(=O)N1CCC[C@H]1C(=O)N[C@@H](C/C=C\C[C@H](NC(=O)[C@@H]1CCCN1C(=O)c1cc2cc3ccccc3cc2nc1CC)C(=O)N[C@@H](CCCCN)C(=O)NCCCN)C(=O)N[C@@H](CCCCN)C(=O)NCCCN | (CUG)4 RNA | SPR |  |  | Kd | 0.019 µM |

Excerpt of the above:
| SMILES | target | assay | system | setting | measurement | value |
| --- | --- | --- | --- | --- | --- | --- |
| Cc1cccc2c1N(C(=O)n1ccnn1)CC2 | KAI2 (Arabidopsis thaliana, UniProt Q9SZU7, D217E) | ITC |  | D217E mutant | Kd | 1120 µM and 1250 µM and 1140 µM |
| OC[C@H]1c2[nH]cnc2[C@H](O)[C@@H](O)[C@@H]1O | bglA | binding, ITC |  | pH 5.8 | Kd | 36.6 µM |
